Experimental data gathered from unrelated publications.
A part holds a random share of what one study measured. Positions count from the first letter of the parent shown.

Series 1
Target: Centromere-binding protein 1, full length, N-terminal tag (CBF1, Saccharomyces cerevisiae, UniProt P17106, residues 1-351)
UniProt P17106, sequence (whole entry, looked up): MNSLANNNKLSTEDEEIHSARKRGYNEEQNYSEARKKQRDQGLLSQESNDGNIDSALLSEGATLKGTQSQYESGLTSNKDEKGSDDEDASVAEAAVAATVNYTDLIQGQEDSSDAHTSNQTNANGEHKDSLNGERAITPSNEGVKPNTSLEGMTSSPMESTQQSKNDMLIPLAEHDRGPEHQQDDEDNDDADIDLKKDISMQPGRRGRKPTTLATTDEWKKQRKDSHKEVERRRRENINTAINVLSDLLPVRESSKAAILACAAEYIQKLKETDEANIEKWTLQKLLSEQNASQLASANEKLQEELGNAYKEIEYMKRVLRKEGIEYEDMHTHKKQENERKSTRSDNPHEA
Method: protein-binding microarray
Molecule type: double-stranded DNA, one strand shown
Matrix: in vitro
Concentration: 0.8 µM
Notes: whole 60-bp probe, no competitor
Direction: higher = stronger binding
Endpoint: fluorescence intensity
CCTAACTACTATAGCAAAATCACATAGCTTCGTACAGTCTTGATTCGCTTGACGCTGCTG: 547 a.u.
GAAGTTTAATTCAGACACGCAATATATGTAGATTAGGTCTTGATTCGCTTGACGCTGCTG: 548 a.u.
GAACATGAATATACTCACCTGTATACGTAGCAATAGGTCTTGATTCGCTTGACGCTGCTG: 586 a.u.
CTACACAAATTTTGTCACCTGTGCTTTGCTAGATTCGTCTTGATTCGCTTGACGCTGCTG: 650 a.u.
CTAACACTAATGTGTCACCAAACAAACAAACGATTCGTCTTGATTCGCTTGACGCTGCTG: 564 a.u.
GAATTTCCCTTCCCTCGCGTGCCATTCGGCGATTAGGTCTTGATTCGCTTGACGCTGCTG: 504 a.u.
CTAGTACCTATATACCACCAGAAGTATGTGTCTTTCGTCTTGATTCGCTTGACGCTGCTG: 507 a.u.
CTACCAAAATTTTCACACCTGAGATATATTGTTTTCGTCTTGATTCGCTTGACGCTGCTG: 504 a.u.
GAACGACAATTTTGTCACGATTGTTATCATTTTTAGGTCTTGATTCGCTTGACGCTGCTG: 586 a.u.
CTAACAAGCATCTTTAGCGTGCCCTTAGGGCCCTTCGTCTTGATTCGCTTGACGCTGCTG: 477 a.u.
GAACCTTCCCCACCGCATGTGAAAAAAGCTCGATAGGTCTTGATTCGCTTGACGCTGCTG: 595 a.u.
GAACATCTATTAAATCTGATGACTGTTTTCTCATAGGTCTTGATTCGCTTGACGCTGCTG: 554 a.u.
TGTACGAAGCTATCCCACGTACGTATAGTAGTTAGGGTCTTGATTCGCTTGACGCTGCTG: 517 a.u.
GAAAAAACAATGCCGCACCTGAGGGAGAACAAATAGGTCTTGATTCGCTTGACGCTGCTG: 531 a.u.
GAACTTCTAATCCATCAGATGGGCCAATAATAGTAGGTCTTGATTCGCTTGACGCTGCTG: 583 a.u.
CTATACTGCTGCTGTTGTGTGACTTGAAACGCGTTCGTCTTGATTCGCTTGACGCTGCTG: 607 a.u.
CTAAAATCTGGCAGTAACATCAATTAATGATACTTCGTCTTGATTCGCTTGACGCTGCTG: 527 a.u.
GAAACCATAGCAACTCATGTCACTATCAATTACTAGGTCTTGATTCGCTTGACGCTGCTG: 535 a.u.

Series 2
Target: RING finger protein unkempt homolog, zinc fingers 1-6, GST-SBP tag (UNK, Homo sapiens, UniProt Q9C0B0, residues 30-357)
UniProt Q9C0B0, sequence (30-357, looked up): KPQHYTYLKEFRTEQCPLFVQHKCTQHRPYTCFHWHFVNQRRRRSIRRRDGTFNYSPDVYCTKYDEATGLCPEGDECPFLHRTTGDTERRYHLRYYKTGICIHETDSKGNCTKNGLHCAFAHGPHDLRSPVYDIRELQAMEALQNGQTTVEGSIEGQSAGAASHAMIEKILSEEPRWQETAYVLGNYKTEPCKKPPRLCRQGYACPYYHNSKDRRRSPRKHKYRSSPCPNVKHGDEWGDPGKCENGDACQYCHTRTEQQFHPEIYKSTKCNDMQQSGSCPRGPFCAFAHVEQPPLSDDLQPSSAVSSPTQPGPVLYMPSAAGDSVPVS
Method: RNA Bind-n-Seq
Molecule type: RNA
Matrix: in vitro
Concentration: not given
Notes: RNA with constant flanks, human and mouse sites, ends assumed
Relative to: input RNA pool
Direction: higher = stronger binding
Endpoint: bound/input enrichment
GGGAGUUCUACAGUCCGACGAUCUUAGUGGUGACUUCAUUGUGCAAAUCAUCUUCUCUGCCAGCUUCCCAGAACAAUCUGCGGCACUAGGUCCUACCUCCAGCCAAUGAAUGGGAUCAUUCUGGAUGUCACCAGCCCAAUAGGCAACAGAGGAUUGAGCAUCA: 0.225 ratio
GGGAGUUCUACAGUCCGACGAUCUCACACCUUCUUAUAAAGUGUGAACAAGGAAGGUCAUGUUUUUGUGGGUAUUUUGUCAGACUUAGAGGUUUCAUUUCAGGGCAUAGUCAAAGGCAUCAUCCUCCCAACUACCCACUUGAUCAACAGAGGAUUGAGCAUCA: 0.334 ratio
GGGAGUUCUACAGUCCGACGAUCUUCAUCUUGAGGUGGCCAAUAUGGGGAUGUGGAAUUUUUAUACAAGUUAUAAGUGUUUGGCAUAGUACUUUUGGUACAUUGUGGCUUCAAAAGGGCCAGUGUAAAACUGCUUCCAUGUCUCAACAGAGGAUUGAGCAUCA: 0.134 ratio
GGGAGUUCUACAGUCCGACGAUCCAGAUGCUUGUGACCACACCAGAAAAAUGGGAUGUAGUGACAAGAAAGAGUGUUGGGGAUGUAGCUCUUUCCCAGAUUGUAAGGCUCCUUAUUCUUGAUGAAGUUCAUUUGCUGCAUGAACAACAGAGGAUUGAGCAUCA: 0.117 ratio
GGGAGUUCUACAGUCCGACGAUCUCGGAAAUGCCGCUUUUGACUUCAACUAAUGAAUUUUAUACUAAAGGGAUGACACCAGUUCAAGACAAGGAGGAAGGAAAGAAUUCAUCUAAGUGUUACAUACAGGUCACUGGCAUGACUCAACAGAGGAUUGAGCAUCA: 0.295 ratio
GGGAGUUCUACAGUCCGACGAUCAGUGAAGUUCAGGCAAACCUUUCUCUGUUCCUAGAGGCAGCUAGUGGCUUCUAUACUCAGUUAUUACAAGAACUGUGUACAGUAUUUAAUGUAGAUUUACCAUGCCGUGUGAAGUCUUCCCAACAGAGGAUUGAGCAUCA: 0.817 ratio
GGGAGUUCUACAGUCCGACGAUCUAGCUUAUUUUUCCAUAUAGUAAUGCAGUUAGGGUUCUCAGCACUUUCUUUCUUCUAUCCUUUUUUUAACUCUUCAUAUUAUGUUCAGAUGAUCAUACUGUCAAGGUUUGUGUACAUUACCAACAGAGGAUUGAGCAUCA: 8.04 ratio
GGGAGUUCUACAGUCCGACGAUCCGUUCAAGAGGAUUUGCCUUUGUAUAUUUUGAAAAUGUAGACGAUGCCAAGGAAGCUAAAGAACGUGCCAAUGGAAUGGAGCUUGAUGGGCGUCGAAUUAGAGUCGAUUUCUCUAUAACACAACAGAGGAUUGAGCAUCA: 0.25 ratio

Series 3
Target: Histone acetyltransferase KAT6A, winged helix 2, GST fusion (KAT6A, Homo sapiens, UniProt Q92794, residues 85-181)
Method: protein binding microarray
Molecule type: double-stranded DNA, one strand shown
Matrix: in vitro
Concentration: not given
Notes: 8-mer, flanks averaged, mean of 2 arrays, mostly near background
Relative to: not given
Direction: higher = stronger binding
Endpoint: E-score
Target sequence (chain): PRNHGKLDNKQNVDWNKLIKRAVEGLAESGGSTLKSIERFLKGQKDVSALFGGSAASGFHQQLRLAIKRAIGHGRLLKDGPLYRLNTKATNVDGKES
CGAACTCA: 0.108
TCATGGCA: 0.078
CACGCATA: -0.0622
ACGATCTA: -0.1
GGCTGTCA: 0.0212
CGAGGGGA: 0.144
AGTTGGTG: 0.0127
GCCCACGA: 0.0353
GGAGAGGA: -0.0643
ATTGGCAA: 0.0902
AAATTAGG: 0.16
CCGCGCGG: 0.348
GCGTTTTA: 0.112
CGGTCACC: 0.102
GTAACCAA: 0.082
TATCAGCA: 0.0592
CCAACGCC: 0.0258
AGAAAGAT: -0.0324
GAACTATA: -0.0327
AATATACA: -0.0572
ACTGATGA: -0.174
GGTCAAAC: -0.0193
AACCCATG: -0.19
CCGTACGC: 0.0141
GAGACATA: 0.00024

Series 4
Target: CCNA1, cyclin fold, Cln2 fusion (human)
Method: yeast growth competition, sequencing
Matrix: yeast
Notes: weak parent motif
Relative to: not given
Direction: higher = stronger binding
Endpoint: normalised enrichment score
Parent: WEE1 docking peptide (human); HKTFRKLRLFDTP
HITFRKLRLFDTP [K2I]: 0.05
HKEFRKLRLFDTP [T3E]: -0.17
HETFRKLRLFDTP [K2E]: 0.166
HKTFRKLRLFDDP [T12D]: 0.517
HKTFRKLGLFDTP [R8G]: 0.234
HKTFRKLFLFDTP [R8F]: -0.228
HKTRRKLRLFDTP [F4R]: 0.338
HKTFVKLRLFDTP [R5V]: -0.103
HKTFRGLRLFDTP [K6G]: 0.267
HKTFRKLCLFDTP [R8C]: 0.434
HKTFRKLRLFWTP [D11W]: 0.249
HKTFRKSRLFDTP [L7S]: 0.285
HKTFRTLRLFDTP [K6T]: 0.318
HKQFRKLRLFDTP [T3Q]: 0.0597
HKTFRKLRLSDTP [F10S]: 0.0357
HKTFRILRLFDTP [K6I]: 0.45
HKTFRKLRLFDTG [P13G]: 0.00982
HKTFRKLRLFRTP [D11R]: 0.219
HKTFRKLRLVDTP [F10V]: 0.234
HKTFRKLRDFDTP [L9D]: 0.284
HKTFRKLRMFDTP [L9M]: 0.352
HKTFRKMRLFDTP [L7M]: -0.27
EKTFRKLRLFDTP [H1E]: 0.271
HKTFRKLRLIDTP [F10I]: 0.364
HKTFRKLSLFDTP [R8S]: 0.651

Some of these lines once more (series 3):
GTAACCAA: 0.082
TATCAGCA: 0.0592
CCAACGCC: 0.0258
AGAAAGAT: -0.0324
GAACTATA: -0.0327
AATATACA: -0.0572
